{"data": "Assay results from different studies", "TDG": "TDG 1-410 (Homo sapiens, UniProt Q13569)", "gabR full length assumed": "gabR full length assumed (Bacillus subtilis, UniProt P94426)", "P1": "APOBEC3G/EYFP (Homo sapiens); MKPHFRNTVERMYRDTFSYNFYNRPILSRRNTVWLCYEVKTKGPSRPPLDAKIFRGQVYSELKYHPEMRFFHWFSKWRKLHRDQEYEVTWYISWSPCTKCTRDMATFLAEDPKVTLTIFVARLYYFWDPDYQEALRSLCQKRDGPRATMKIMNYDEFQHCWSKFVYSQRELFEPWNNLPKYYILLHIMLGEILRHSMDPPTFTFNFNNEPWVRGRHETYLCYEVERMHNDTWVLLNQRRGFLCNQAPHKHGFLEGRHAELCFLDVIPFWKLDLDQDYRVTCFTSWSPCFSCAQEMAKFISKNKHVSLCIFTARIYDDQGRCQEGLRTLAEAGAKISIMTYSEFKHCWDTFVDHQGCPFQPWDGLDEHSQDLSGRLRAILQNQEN; partner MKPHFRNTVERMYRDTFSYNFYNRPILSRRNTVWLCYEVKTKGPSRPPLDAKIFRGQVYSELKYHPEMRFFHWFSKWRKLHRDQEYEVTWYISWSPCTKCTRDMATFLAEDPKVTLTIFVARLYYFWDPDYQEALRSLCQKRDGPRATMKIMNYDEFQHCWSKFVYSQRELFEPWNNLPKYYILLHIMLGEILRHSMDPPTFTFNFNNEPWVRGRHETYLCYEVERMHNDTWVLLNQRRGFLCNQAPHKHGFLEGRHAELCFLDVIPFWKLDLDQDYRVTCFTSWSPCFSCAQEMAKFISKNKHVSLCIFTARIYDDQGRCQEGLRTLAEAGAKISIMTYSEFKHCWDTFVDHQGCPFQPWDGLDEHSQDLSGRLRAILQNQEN", "B1": "EzrA 216-562 (Bacillus subtilis, UniProt O34894); chain PKLLADCKQTVPGQIAKLKDGYGEMKEKGYKLEHIQLDKELENLSNQLKRAEHVLMTELDIDEASAILQLIDENIQSVYQQLEGEVEAGQSVLSKMPELIIAYDKLKEEKEHTKAETELVKESYRLTAGELGKQQAFEKRLDEIGKLLSSVKDKLDAEHVAYSLLVEEVASIEKQIEEVKKEHAEYRENLQALRKEELQARETLSNLKKTISETARLLKTSNIPGIPSHIQEMLENAHHHIQETVNQLNELPLNMEEAGAHLKQAEDIVNRASRESEELVEQVILIEKIIQFGNRFRSQNHILSEQLKEAERRFYAFDYDDSYEIAAAAVEKAAPGAVEKIKADISA", "P2": "ALIS5 (Arabidopsis thaliana); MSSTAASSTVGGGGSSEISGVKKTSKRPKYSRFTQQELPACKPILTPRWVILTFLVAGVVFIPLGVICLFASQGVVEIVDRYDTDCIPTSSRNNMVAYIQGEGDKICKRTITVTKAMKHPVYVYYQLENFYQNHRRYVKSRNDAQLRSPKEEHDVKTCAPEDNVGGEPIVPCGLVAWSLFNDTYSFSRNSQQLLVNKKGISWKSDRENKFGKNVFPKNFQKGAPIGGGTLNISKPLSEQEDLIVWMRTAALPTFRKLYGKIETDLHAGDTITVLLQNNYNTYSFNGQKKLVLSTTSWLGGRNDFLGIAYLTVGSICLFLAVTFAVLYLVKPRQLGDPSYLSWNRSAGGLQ; partner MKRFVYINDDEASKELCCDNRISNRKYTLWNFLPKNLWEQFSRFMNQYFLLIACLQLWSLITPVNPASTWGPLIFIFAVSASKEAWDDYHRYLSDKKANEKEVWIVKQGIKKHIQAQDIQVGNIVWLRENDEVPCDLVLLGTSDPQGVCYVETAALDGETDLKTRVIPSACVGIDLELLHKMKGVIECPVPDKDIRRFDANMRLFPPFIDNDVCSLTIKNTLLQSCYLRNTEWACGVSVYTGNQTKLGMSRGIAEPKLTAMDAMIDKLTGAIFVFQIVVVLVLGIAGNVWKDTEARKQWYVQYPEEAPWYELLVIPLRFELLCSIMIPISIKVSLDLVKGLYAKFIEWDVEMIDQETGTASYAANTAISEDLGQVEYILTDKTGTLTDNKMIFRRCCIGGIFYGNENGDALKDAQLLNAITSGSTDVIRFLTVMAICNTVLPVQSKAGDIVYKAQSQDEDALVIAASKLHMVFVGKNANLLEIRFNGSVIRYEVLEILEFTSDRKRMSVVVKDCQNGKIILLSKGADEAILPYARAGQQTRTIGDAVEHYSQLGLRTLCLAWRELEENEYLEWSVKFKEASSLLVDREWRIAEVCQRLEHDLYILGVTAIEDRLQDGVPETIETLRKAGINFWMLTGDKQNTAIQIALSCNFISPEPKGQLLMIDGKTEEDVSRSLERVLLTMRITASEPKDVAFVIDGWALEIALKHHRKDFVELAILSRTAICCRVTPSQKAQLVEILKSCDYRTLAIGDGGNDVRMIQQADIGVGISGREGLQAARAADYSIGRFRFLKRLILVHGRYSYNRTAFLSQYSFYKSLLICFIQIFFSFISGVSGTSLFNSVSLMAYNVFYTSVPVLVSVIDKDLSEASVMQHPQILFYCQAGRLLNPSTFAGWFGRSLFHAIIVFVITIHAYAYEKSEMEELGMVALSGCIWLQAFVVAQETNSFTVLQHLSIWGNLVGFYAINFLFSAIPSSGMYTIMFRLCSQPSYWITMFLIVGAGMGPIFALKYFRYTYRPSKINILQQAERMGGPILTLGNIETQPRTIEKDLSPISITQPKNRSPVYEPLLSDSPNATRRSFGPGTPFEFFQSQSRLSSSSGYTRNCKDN", "P3": "FAS/IgG1 Fc extracellular domain with hinge; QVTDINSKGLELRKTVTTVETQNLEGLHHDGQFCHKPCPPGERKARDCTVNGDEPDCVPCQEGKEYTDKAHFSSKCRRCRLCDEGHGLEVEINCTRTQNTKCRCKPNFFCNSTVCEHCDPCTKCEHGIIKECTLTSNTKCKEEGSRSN; partner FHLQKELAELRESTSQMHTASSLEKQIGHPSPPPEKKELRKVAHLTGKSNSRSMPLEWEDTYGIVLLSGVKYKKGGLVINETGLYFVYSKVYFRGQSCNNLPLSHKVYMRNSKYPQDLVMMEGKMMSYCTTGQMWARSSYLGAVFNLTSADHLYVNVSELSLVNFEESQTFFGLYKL", "note": "Positions count from the first letter of the parent shown. ± gives the spread as reported.", "chain of UniProt P94426 (whole entry, looked up)": "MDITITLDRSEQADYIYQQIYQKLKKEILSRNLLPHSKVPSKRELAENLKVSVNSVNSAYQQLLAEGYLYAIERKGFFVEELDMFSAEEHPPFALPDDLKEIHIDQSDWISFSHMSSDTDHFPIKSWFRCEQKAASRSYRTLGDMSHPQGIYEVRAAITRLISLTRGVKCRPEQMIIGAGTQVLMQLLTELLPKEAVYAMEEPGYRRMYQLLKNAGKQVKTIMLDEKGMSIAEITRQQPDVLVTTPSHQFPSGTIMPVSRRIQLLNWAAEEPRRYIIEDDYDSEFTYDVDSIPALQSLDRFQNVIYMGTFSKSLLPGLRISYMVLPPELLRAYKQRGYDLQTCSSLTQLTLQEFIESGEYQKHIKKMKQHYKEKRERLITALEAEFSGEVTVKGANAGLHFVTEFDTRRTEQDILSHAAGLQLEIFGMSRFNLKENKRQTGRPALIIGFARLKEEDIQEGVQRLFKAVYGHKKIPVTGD", "chain of UniProt Q13569 (whole entry, looked up)": "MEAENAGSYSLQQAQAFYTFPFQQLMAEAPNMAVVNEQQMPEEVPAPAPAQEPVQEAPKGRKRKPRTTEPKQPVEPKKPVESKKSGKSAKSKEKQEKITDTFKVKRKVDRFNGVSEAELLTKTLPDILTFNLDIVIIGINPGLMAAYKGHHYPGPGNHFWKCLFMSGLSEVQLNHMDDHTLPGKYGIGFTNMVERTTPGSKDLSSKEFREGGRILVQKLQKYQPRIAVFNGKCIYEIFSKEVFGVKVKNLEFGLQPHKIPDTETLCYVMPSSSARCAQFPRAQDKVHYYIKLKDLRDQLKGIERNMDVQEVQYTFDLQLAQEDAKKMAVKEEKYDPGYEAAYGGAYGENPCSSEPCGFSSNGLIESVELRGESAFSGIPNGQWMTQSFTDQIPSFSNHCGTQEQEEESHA", "chain of UniProt Q8IUH3 (whole entry, looked up)": "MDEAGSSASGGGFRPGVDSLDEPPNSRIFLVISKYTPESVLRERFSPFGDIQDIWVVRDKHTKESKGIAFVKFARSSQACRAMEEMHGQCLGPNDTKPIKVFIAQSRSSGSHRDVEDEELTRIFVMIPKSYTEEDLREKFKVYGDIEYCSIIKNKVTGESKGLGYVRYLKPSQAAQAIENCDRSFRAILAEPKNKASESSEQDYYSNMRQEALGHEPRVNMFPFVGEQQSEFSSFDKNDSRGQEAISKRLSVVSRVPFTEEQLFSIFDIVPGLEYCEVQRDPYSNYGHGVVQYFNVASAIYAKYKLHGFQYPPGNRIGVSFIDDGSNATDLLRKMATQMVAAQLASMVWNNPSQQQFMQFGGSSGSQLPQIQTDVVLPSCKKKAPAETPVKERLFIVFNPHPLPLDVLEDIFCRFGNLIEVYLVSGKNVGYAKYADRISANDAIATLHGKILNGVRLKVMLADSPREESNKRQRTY", "chain of UniProt P0AE01 (whole entry, looked up)": "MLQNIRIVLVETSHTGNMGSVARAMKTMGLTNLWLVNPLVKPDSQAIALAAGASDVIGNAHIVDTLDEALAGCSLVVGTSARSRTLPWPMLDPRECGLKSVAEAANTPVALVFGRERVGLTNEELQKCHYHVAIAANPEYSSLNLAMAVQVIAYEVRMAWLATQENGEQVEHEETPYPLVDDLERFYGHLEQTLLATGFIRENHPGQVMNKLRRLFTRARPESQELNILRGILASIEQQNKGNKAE", "chain of UniProt Q9NR56 (whole entry, looked up)": "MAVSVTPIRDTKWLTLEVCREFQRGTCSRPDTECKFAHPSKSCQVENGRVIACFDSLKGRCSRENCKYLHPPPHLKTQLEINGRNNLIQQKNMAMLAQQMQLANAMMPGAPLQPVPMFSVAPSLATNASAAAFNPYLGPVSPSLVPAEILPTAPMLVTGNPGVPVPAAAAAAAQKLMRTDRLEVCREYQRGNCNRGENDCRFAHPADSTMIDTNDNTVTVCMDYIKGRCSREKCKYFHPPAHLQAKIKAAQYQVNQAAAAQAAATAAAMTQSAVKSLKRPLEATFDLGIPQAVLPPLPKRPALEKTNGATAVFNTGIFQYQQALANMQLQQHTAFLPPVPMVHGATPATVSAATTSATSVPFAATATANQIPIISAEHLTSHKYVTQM", "chain of UniProt P26358 (whole entry, looked up)": "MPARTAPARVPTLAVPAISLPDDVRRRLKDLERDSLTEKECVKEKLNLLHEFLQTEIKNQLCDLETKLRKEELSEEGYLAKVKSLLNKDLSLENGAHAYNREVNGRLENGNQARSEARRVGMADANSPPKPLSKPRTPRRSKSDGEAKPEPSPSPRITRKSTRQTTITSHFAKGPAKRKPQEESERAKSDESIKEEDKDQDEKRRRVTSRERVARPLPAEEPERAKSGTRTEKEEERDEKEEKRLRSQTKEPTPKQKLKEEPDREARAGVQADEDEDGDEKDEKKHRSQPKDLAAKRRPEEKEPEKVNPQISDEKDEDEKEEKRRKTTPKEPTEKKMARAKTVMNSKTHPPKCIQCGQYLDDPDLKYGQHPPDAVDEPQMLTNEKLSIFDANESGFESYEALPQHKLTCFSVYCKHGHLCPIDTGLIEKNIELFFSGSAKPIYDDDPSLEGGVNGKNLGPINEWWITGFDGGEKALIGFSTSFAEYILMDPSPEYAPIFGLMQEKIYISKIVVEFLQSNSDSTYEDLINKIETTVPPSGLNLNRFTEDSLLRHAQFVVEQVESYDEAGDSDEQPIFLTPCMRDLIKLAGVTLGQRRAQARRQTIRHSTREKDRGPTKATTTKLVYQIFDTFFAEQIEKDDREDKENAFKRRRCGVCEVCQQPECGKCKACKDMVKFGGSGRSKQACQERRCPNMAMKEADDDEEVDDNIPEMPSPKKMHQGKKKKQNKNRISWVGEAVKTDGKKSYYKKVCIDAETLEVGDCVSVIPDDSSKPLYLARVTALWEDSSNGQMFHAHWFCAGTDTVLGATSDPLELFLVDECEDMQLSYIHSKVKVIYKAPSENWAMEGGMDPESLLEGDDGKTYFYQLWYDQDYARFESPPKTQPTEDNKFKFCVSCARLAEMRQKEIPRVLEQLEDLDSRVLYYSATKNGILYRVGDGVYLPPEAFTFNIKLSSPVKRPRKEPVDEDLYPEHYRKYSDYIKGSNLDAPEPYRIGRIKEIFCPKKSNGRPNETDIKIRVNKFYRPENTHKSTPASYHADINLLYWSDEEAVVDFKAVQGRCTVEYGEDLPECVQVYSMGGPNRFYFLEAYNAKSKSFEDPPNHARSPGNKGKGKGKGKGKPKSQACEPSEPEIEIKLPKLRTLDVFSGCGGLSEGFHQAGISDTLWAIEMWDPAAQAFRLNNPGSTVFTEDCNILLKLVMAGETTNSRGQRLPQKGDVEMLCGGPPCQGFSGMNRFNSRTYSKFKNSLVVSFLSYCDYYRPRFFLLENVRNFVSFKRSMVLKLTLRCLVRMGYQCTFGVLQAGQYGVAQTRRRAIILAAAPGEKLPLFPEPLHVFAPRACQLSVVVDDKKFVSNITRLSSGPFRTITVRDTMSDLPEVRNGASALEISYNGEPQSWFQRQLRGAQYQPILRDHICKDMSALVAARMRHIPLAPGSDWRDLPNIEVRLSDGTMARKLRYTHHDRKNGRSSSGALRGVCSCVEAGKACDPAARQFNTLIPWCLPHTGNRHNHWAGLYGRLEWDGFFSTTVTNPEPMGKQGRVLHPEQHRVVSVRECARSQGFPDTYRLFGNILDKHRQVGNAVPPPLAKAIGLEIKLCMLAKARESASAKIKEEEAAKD", "chain of UniProt A8T666 (whole entry, looked up)": "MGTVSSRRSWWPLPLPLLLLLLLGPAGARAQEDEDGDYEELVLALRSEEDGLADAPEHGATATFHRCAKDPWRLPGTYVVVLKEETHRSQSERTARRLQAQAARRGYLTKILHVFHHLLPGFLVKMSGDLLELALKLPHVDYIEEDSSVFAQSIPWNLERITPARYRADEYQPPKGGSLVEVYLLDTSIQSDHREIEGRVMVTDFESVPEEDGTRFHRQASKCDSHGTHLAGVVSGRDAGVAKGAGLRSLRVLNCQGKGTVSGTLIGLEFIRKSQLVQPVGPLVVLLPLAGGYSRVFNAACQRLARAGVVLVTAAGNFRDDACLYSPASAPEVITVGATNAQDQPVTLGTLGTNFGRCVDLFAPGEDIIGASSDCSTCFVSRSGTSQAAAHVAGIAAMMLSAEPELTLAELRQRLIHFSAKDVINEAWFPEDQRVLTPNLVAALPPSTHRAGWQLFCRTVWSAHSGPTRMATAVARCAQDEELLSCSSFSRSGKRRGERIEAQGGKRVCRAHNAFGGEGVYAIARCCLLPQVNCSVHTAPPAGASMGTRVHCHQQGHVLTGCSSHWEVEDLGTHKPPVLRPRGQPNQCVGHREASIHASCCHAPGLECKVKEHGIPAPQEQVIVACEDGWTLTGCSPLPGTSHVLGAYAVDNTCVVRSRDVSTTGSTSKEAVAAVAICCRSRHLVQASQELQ", "chain of UniProt P0A9X9 (whole entry, looked up)": "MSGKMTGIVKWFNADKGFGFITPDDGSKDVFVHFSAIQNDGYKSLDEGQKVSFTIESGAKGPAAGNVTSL"}
{"Substance": "P1 F126A", "target or system": "APOBEC3G Renilla luciferase fusion (Homo sapiens)", "test": "BRET", "test system": "293T", "conditions": "read off a plot", "how to read": "baseline: unchanged protein, higher = more binding", "quantity": "relative binding", "result": 0.24}
{"Substance": "CGCGGGGUGGAGCAGCCUGGUAGCUCGUCGGGCUCAUAACCCGAAGAUCGUCGGUUCAAAUCCGGCCCCCGCAACCA (tRNA (Escherichia coli); cloverleaf, unmodified)", "target or system": "trmJ 171-246 (Escherichia coli, UniProt P0AE01)", "test": "EMSA", "test system": "folded RNA", "conditions": "Mg2+ 5 mM, added: sinefungin 500 µM", "quantity": "binding", "result": "no binding"}
{"Substance": "GUCUCGCUUUUCCCCUCCGCUGCGGCC (ssRNA (Homo sapiens); hairpin)", "target or system": "MBNL1 1-92 (Homo sapiens, UniProt Q9NR56)", "test": "NMR titration", "test system": "folded RNA", "quantity": "binding", "result": "binds"}
{"Substance": "GTGTCACCACTGCTCACGTACAGAGCTG (dsDNA; fully paired duplex)", "target or system": "TDG", "test": "competition", "test system": "double-stranded DNA, one strand shown", "quantity": "Kd", "result": "26 ± 8 nM"}
{"Substance": "TGAGGGTGGGTAGGGTGGGTAA (G-quadruplex DNA; G4)", "target or system": "DNMT1 1-1616 (Homo sapiens, UniProt P26358)", "test": "ELISA", "test system": "folded DNA", "conditions": "K+ 100 mM", "quantity": "Kd", "result": "25.3 ± 0.4 nM"}
{"Substance": "P1 Y124A", "target or system": "APOBEC3G Renilla luciferase fusion (Homo sapiens)", "test": "BRET", "test system": "293T", "conditions": "read off a plot", "how to read": "baseline: unchanged protein, higher = more binding", "quantity": "relative binding", "result": 0.3}
{"Substance": "CTTCTGATACCATCATATAGTTATATAAGGTACTTATCATCATACCAAAGAGAAGTCAGAATGATAAGAAAATACCG (dsDNA (Bacillus subtilis))", "target or system": "gabR full length assumed", "test": "BLI", "test system": "double-stranded DNA, one strand shown", "quantity": "Kd", "result": "1160 ± 650 nM"}
{"Substance": "UUCUUCUGUGGACUGUG (ssRNA)", "target or system": "RBM45 1-476 (Homo sapiens, UniProt Q8IUH3)", "test": "fluorescence polarization", "test system": "RNA", "quantity": "Kd", "result": "1370 ± 212 nM"}
{"Substance": "GGUCUGUUUCCAGACCUCC (ssRNA; hairpin)", "target or system": "cspA full length assumed (Escherichia coli, UniProt P0A9X9)", "test": "NMR chemical shift titration", "test system": "folded RNA", "conditions": "20 °C", "quantity": "Kd", "result": "12000 ± 2000 nM"}
{"Substance": "CTTCTGATACCATCAAAAAGTTATAATTGGTACTTTTCATCATAGGAAAGAGAAGTCAGAATGATAAGAAAATACCG (dsDNA (Bacillus subtilis))", "target or system": "gabR full length assumed", "test": "BLI", "test system": "double-stranded DNA, one strand shown", "quantity": "Kd", "result": "7100 ± 1900 nM"}
{"Substance": "AACGUACUUUAAGGCCUAUUGAGGAAACUC (ssDNA; all dC Pp-dC; all dU Nap-dU)", "target or system": "PCSK9 31-692 (Macaca mulatta, UniProt A8T666)", "test": "filter binding", "quantity": "Kd", "result": "0.0113 nM"}
{"Substance": "DNA 1 GTGTCACCACTGCTCATGTACAGAGCTG / DNA 2 CAGCTCTGTACGTGAGCAGTGGTGACAC (dsDNA; 2'-F-arabino-T mispaired with G, CpG)", "target or system": "TDG", "test": "fluorescence anisotropy", "test system": "double-stranded DNA", "quantity": "Kd", "result": "18 ± 3 nM"}
{"Substance": "B1 (EzrA 216-562)", "target or system": "ftsZ (Bacillus subtilis, UniProt P17865)", "test": "SPR", "conditions": "pH 6.5, read off a plot", "quantity": "Kd", "result": "< 10000 nM"}
{"Substance": "CTTCTGATACCATCCATCAAAAAGTTATAATTGGTACTTTTATACCAAAGAGAAGTCAGAATGATAAGAAAATACCG (dsDNA (Bacillus subtilis))", "target or system": "gabR full length assumed", "test": "BLI", "test system": "double-stranded DNA, one strand shown", "quantity": "Kd", "result": "11700 ± 5900 nM"}
{"Substance": "P2 N181Q N231Q", "target or system": "ALA2 (Arabidopsis thaliana)", "test": "pull-down", "test system": "yeast membranes", "conditions": "read off a plot", "how to read": "baseline: unchanged protein, higher = more binding", "quantity": "relative binding", "result": 0.28}
{"Substance": "P3 H117S", "target or system": "FASLG/CD8 fusion (Homo sapiens)", "test": "SPR", "conditions": "end of injection, read off a plot", "how to read": "higher = more binding", "quantity": "binding response", "result": "58 RU"}
{"note": "Repeated from above:"}
{"Substance": "P3 H117S", "target or system": "FASLG/CD8 fusion (Homo sapiens)", "test": "SPR", "conditions": "end of injection, read off a plot", "how to read": "higher = more binding", "quantity": "binding response", "result": "58 RU"}
